{"data": "Measurements pooled from the literature", "note": "“And” joins repeats or separate records; there may be more than shown. ± marks the error that the study gave."}
{"Compound": "Nc1c(S(=O)(=O)O)cc(Nc2cccc(S(N)(=O)=O)c2)c2c1C(=O)c1ccccc1C2=O", "system": "mouse plasma", "conditions": "8 µM, 72 h, 37 °C", "quantity": "plasma stability", "result": "stable"}
{"Compound": "CN(C)CCCOc1ccc2cc1Oc1ccc(cc1)CC1c3c(cc(OCCCN(C)C)c4c3Oc3cc5c(cc3O4)CCN(C)C5C2)CCN1C (stereo not shown)", "system": "plasma", "conditions": "intraperitoneal, 5 mg/kg, 30 min", "quantity": "plasma concentration", "result": "≤ 600 ng/mL"}
{"Compound": "CCOc1ccc2cc(-c3nn(CC4CCNCC4)c4ncnc(N)c34)ccc2n1", "system": "piglets, crossbred", "conditions": "oral, 10 mg/kg twice daily, 2 h before dose 9, 7 days post infection", "quantity": "plasma concentration", "result": "0.2 ± 0.1 µM"}
{"Compound": "CONC(=O)[C@H]1[C@@H](O)[C@@]2(O)c3c(cc(OC)nc3OC)O[C@@]2(c2ccc(C#N)cc2)[C@@H]1c1ccccc1", "system": "plasma", "conditions": "intravenous, 0.5 mg/kg", "quantity": "plasma half-life", "result": "4.11 h"}
{"Compound": "COc1ccc(-c2csc(N/N=C(\\C)c3cc(O)cc(O)c3)n2)cc1", "assay": "equilibrium dialysis", "system": "human plasma, male", "conditions": "3 µM, 5 h, pH 7.4", "quantity": "plasma protein binding", "result": "99.4% and 100% and 99.9%"}
{"Compound": "CN1C(=CC2=C(O)C(=CC3=[N+](CCC[N+](C)(C)C)c4ccc(F)cc4C3(C)C)C2=O)C(C)(C)c2ccccc21", "assay": "rapid equilibrium dialysis", "system": "plasma", "quantity": "plasma protein binding", "result": "4.5%"}
{"Compound": "N#Cc1ccc(-c2cc(=O)c3ccc4[nH]c(C(F)(F)F)nc4c3o2)cc1", "quantity": "plasma stability", "result": "stable"}
{"Compound": "CCOc1ccc2cc(-c3nn(CC4CCN(C)CC4)c4ncnc(N)c34)ccc2n1", "system": "piglets, Landrace x Large White, plasma", "conditions": "oral, 10 mg/kg, 2 h after dose 1, 3 dpi", "quantity": "plasma concentration", "result": "4.9 µM"}
{"Compound": "O=C(CCC(C(=O)[O-])N1CCN(C(CCC(=O)NCC(O)CO)C(=O)[O-])Cc2cccc(n2)CN(C(CCC(=O)NCC(O)CO)C(=O)[O-])CC1)NCC(O)CO.[153Gd+3] (stereo not shown)", "assay": "equilibrium dialysis", "system": "rat plasma", "conditions": "0.01-5 µmol/mL, 2 h, 37 °C", "quantity": "plasma protein binding", "result": "0%"}
{"Compound": "NC[C@@H](C(=O)Nc1ccc(-c2cn[nH]c2)cc1)c1ccccc1", "system": "rabbit New Zealand White, plasma", "conditions": "topical ocular, one drop 0.1%, 8 h", "scale": "below calibration minimum", "quantity": "plasma concentration", "result": "< 0.8 ng/mL"}
{"Compound": "CCCCCCCCCCCCCCCC(=O)N[C@@H](CCCCN)C(=O)N[C@@H](CCCCN)C(=O)N[C@@H](CO)C(=O)N[C@@H](CCCNC(=N)N)C(=O)N[C@@H](C)C(=O)N[C@@H](CC(C)C)C(=O)N[C@@H](Cc1ccccc1)C(N)=O", "assay": "LC-MS/MS", "system": "baboon", "conditions": "intravenous infusion, 3 and 6 mg/kg, 24 to 48 h", "quantity": "plasma concentration", "result": "not detected"}
{"Compound": "CN1C(=CC2=C(O)C(=CC3=[N+](CCC[N+](C)(C)C)c4ccc(Br)cc4C3(C)C)C2=O)C(C)(C)c2ccccc21", "assay": "rapid equilibrium dialysis", "system": "plasma", "quantity": "plasma protein binding", "result": "68.3%"}
{"Compound": "CN1CCC(Cn2nc(-c3ccc4nc(O)ccc4c3)c3c(N)ncnc32)CC1", "system": "piglets, crossbred", "conditions": "oral, 10 mg/kg, 2 h after dose 1, 3 days post infection", "quantity": "plasma concentration", "result": "0 µM"}
{"note": "For quick reference, copied from above:"}
{"Compound": "Nc1c(S(=O)(=O)O)cc(Nc2cccc(S(N)(=O)=O)c2)c2c1C(=O)c1ccccc1C2=O", "system": "mouse plasma", "conditions": "8 µM, 72 h, 37 °C", "quantity": "plasma stability", "result": "stable"}
